# Results gathered from unrelated publications.
# Each numbered part is a random draw from the data of one study; scales do not carry over between parts. Substitutions count along the parent as printed.

# Study 1 — method: DHFR PCA, deep sequencing; matrix: yeast; added: (+)-ABA 1.4 µM; baseline: wild-type fitted maximum; reading: higher = stronger binding
# Target: ABI1, truncated, D143A, DHFR fusion (Arabidopsis thaliana)
# Setting: methotrexate growth selection, single substitutions
# Starting sequence: PYL1, truncated, DHFR fusion (Arabidopsis thaliana); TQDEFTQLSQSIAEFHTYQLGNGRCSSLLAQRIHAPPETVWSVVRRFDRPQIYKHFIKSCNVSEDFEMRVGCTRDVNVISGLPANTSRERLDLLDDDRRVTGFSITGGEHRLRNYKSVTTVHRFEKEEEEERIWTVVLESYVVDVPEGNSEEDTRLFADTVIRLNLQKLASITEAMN
Substitution,relative binding score [%]
R111Q,1.23
T39I,45.3
T135W,-0.274
R90L,6.26
L93C,35.5
V143F,-9.58
N61H,72
E127P,75.2
L138W,-3.82
L94Q,-2.33
M68H,23.6
V118R,64.7
F47H,-4.35
K126F,51.6
R98N,47.3
L164W,32.6
S104K,-10.8

# Study 2 — method: RNA Bind-n-Seq; molecule type: RNA; matrix: in vitro; concentration: 365 nM; baseline: no-protein control; reading: higher = stronger binding
# Target: RNA binding protein fox-1 homolog 2, RRM domain, GST-SBP tag (RBFOX2, Homo sapiens, UniProt O43251-10, residues 100-194)
# Setting: natural RNA segment, single round, ends assumed
# All sequences stand within: GGGAGUUCUACAGUCCGACGAUC … UGGAAUUCUCGGGUGCCAA
# Residues (chain): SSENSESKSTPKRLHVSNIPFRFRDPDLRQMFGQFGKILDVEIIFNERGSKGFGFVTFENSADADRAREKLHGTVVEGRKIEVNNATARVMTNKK
Oligonucleotide,RBNS enrichment (R)
GGCAGAGAAGAAAAAGUCCAGCAGACUCAGGACUCCUGGGCUGCAGGCCCCCCUCUGCCCUGAUCCCAUGAAGUGACCUUGGGCACUCCCUUUCCCUCCCUGGGCCUCAG,0.402
UUUACAUAAGUGUGUGGGUGUCUUGUGGGGGAAGGUUCUGUGCUCUUGUUUUUGUUAAUUUAUUGGAACUCUGUAUAAGGCCAUAUUUUAGUGGCUGUCUGAAACCCCAU,1.64
UACAAGACACACCUCAAGCUUUACCAGCUCAAGCGUCUGUCCUUGGAGGCUCAGCAGAUUUAUUUAAUUGGAAUCCACUCUUAUUCUUCAUUUCAUUAGUUGGACUUUUA,0.276
GAGACACUUCAGAAACUUUGCUCAGAAAACAGAUGCUACAGUUUGUGCAGGCAUGCGGUAGGAAAGGUAGAUCACCUCUGGCUACUCCUGAGGCCCUGCUGAGCCAGCAA,0.6
GUUGGUGCAAUAAUUAAAUAGCAAAGGAAAUCUGUAUUGGCAACUAUUAUAAUUCAAUAAUUCUUUUGUUUACUGCCCUUUUCUGUUCAAGAAUUUUCUGGAAAUUACUC,0.681
AAGAAAGCUUCUUCCAACUUCUGUUUCUGGUGGGAGCGGGGGGACUCCCACUUUUUACAAUGUCUAGUCAUUUUCAUAGUGCCCCACAUUCAAGAACCAGACAACAGGAU,0.564
CAAAUGUGACAGGCUCUUUUUAGCAAAAUUUUUGAAAAUUUUUUUGGUAUUACUCUGAAACAAAAUUUAAGUUGGAGUUUCAGGGAUUUAGGGAGUAGUUUUCAUUCUAC,0.622
AUCACACGAUAUUAGGUACUAAUUAUACCCUCAUUGCUUUAAAAUACACAUCAGGGUCUCUUUUAAAAAUAGAACAAAUCUGUAGUAUUUAAGUUUAAAAAUCUUAAGUU,0.4
CUAAUCAUUCAUCUGUUCAUGUCUCCCUCUUGUGCCAGUCAGCCUAGGUUAUACAGAUGCCAUGCUCCACACCACGAGCAGUGUACAAAUCUGGCUGCCCGUUUACUUUC,0.19
AAGUUCCUUUUUCAUGAACACACCCGAGAAAUCUUAAAUAGACACUUUGCAAUAUUUAAGAACCUAAUGCUGUUUAAUUUUGGUACAGCUUCCACAUUGCAUGUUCACUU,9.35
AAGAUCCCAACCUUCCGAUCUCUGCCUACUCUCAGACUUGGCCAGCCCUCUUGCCUGUCAUCCCAACCCUGCUGCUUCUCUGUAAAAGGUUGUUUCUUUACUAGCAGAAA,3.24
CAAAUCCUGUCGGUCUCCAGUUGGUUAUCUGAAUAGUGUCACCAAUUCCACCAAGACAGUGCUGAGAUUGGAAAAGGGCACUCAUUUGGAUUGCCUUACUUCUCUUGCCU,0.236

# Study 3 — method: protein-binding microarray; molecule type: double-stranded DNA, one strand shown; matrix: in vitro; concentration: 2540 nM top; setting: 60-bp whole probe; added: salmon DNA 0.4 mg/ml; baseline: random background probes; reading: higher = stronger binding; all sequences stand within: GCCTAGCAC … GTCTTGATTCGCTTGACGCTGCTG
# Target: Interferon regulatory factor 3, full length, phosphomimetic (IRF3, Homo sapiens, UniProt Q14653, residues 1-427, S386D/S396D/S398D/S402D/T404D/S405D)
# Target sequence (chain): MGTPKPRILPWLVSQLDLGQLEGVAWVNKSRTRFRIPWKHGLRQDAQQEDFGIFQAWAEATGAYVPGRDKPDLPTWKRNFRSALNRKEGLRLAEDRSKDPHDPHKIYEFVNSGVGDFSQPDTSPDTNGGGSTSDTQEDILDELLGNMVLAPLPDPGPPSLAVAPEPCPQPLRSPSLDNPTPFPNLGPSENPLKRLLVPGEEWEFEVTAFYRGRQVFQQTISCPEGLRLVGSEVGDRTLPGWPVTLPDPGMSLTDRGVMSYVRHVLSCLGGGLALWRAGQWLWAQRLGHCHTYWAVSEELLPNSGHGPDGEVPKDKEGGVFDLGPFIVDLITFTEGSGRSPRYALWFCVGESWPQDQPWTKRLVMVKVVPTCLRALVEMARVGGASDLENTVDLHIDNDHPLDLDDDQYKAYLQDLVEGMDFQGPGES
Oligonucleotide,fitted relative affinity [z-score]
TAGAAACTCGTGTTTTTCTCCGTGCTA,-0.382
TGGGCATTTTTTTTATCAATGTGCTAG,-0.318
AGAATTTTCATTAACTGTTAGTGCTAG,0.386
TTGGATATCAGTTTCGATTAGTGCTAG,4.37
TCAATTCTGAATTCGAAACTGTGCTAG,1.66
TCATTCTCCTATTTAAGACTGTGCTAG,4.17
TCAGTTTTCATTATTGCACTGTGCTAG,3.63
GACGATTCCAGTTTTGAGACGTGCTAG,1.5
TTAGGTATCGGTCTCAGTTAGTGCTAG,3.96
GACGATCTCTGTCTCGAGACGTGCTAG,0.549
TTAGGTTCCCGTTTCCTTTAGTGCTAG,5.59
GACCGTATCGGGACTGGGGACGTGCTA,2.21
GACGGTTTCAGTTTCGGGACGTGCTAG,7.37
TACGGTTTCCTACTGCTGACGTGCTAG,4.99
GAGCCTCTGTTTTGAGCACAGTGCTAG,-0.232
TCATTTTTCTAAGTAAAACTGTGCTAG,1.71
GACGATTTCGGGTTTTGAGACGTGCTA,1.97
GACGGTTTCGACTATCGGCACGTGCTA,2.8

# Study 4 — target: CCNE2, cyclin fold, Cln2 fusion (human); method: yeast growth competition, sequencing; matrix: yeast; setting: strong parent motif; baseline: not given; reading: higher = stronger binding
# Starting sequence: CDC25A docking peptide (human); PPHRRRLLFACSP; partner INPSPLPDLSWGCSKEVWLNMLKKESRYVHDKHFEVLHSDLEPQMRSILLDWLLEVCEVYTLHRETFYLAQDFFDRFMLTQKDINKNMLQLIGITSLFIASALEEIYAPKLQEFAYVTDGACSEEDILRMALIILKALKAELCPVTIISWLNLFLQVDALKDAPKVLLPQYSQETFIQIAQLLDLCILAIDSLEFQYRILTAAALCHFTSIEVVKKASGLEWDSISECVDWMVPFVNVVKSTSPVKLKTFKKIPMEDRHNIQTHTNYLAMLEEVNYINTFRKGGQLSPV
Substitution,normalised enrichment score
PVHRRRLLFACSP [P2V],1.06
PPHMRRLLFACSP [R4M],0.801
PPHRRRLLFAASP [C11A],2.82
PPHVRRLLFACSP [R4V],4.75
PPHRCRLLFACSP [R5C],0.998
PPHRRFLLFACSP [R6F],0.425
PPIRRRLLFACSP [H3I],1.67
PPHRRALLFACSP [R6A],0.767
PPHRRRLMFACSP [L8M],1.72
PPHRRRLLFICSP [A10I],1.76
PPHRIRLLFACSP [R5I],1.67
PPHRRRLLFACRP [S12R],1.59
PPHFRRLLFACSP [R4F],1.2
PPHRRRLLGACSP [F9G],1.29
PPHERRLLFACSP [R4E],0.484

# Study 5 — method: protein binding microarray; molecule type: double-stranded DNA, one strand shown; matrix: in vitro; concentration: not given; baseline: not given; reading: higher = stronger binding
# Target: Histone acetyltransferase KAT6A, winged helix 2, GST fusion (KAT6A, Homo sapiens, UniProt Q92794, residues 85-181)
# Setting: 8-mer, flanks averaged, mean of 2 arrays, mostly near background
# Target sequence (chain): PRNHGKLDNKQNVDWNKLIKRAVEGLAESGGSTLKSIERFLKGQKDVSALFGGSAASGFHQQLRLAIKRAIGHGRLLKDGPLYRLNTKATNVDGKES
Oligonucleotide,E-score
AACAGGAA,0.0373
GGGATCGA,0.0682
ATTGTGCC,-0.0539
CCTCAGTC,-0.0317
GGCGCAGA,0.0711
AATTCACA,-0.0189
AGCAACCG,0.0896
CGGCGACA,0.0245
ATAGGGGC,-0.0629
GTGAGCAC,0.0721
GTTCCTGA,-0.0932
CAATAAGG,-0.258
TCATTCCA,-0.0155
TGTCAACA,-0.0792
AGCTTCAG,-0.111
AGGAGATA,-0.169
CCGTTCAC,-0.13
ATCGTTGA,-0.0413
ATTACTTA,-0.162
CTTAGCTC,0.00296
GCCCTTCA,-0.0763
CCACATCG,-0.17
GGATAGCC,0.0435
CCCTTGAG,0.212
GTATTTCA,-0.0148

# For quick reference, copied from above (study 1):
Substitution,relative binding score [%]
T39I,45.3
T135W,-0.274
R90L,6.26
L93C,35.5
V143F,-9.58
N61H,72
E127P,75.2
L138W,-3.82
L94Q,-2.33
M68H,23.6
V118R,64.7
F47H,-4.35
K126F,51.6
R98N,47.3
